# Experimental data gathered from unrelated publications.
# Each line is one published result; not all experiments were run side by side.
# Organism: Escherichia coli
Structure (SMILES),test,test system,setting,MIC
C#CCON=C1C(C)C(c2ccc(Br)cc2)OC(c2ccc(Br)cc2)C1C (stereo not shown),"microbial growth, broth dilution",MTCC443,24 h,12.5 µg/mL
CC[C@H](C)[C@H](N)C1=N[C@H](C(=O)N[C@@H](CC(C)C)C(=O)N[C@H](CCC(=O)O)C(=O)N[C@H](C(=O)N[C@H]2CCCCNC(=O)[C@H](CC(N)=O)NC(=O)[C@@H](CC(=O)O)NC(=O)[C@H](Cc3c[nH]cn3)NC(=O)[C@@H](Cc3ccc4ccccc4c3)NC(=O)[C@H]([C@@H](C)CC)NC(=O)[C@@H](CCCN)NC2=O)[C@@H](C)CC)CS1,broth microdilution,"ATCC 25922, LB medium","18 h, 37 °C, added: ZnSO4 0.3 mM",> 64 µg/mL
CCCCCCCCCCCCCCCCCCCCCCSCC1OC(OC2C(N)CC(N)C(OC3OC(CN)C(O)CC3N)C2O)C(O)C(N)C1O (stereo not shown),,BL21(DE3) AAC(3)-IV,,> 150 µg/mL
CC(C)C[C@H](NC(=O)[C@H](C)NC(=O)CNC(=O)[C@@H](NC(=O)[C@@H](NC(=O)[C@H](CCCCN)NC(=O)[C@H](CCCCN)NC(=O)[C@H](CC(C)C)NC(=O)[C@H](CC(C)C)NC(=O)[C@H](CCCCN)NC(=O)[C@H](CC(C)C)NC(=O)[C@H](CC(C)C)NC(=O)[C@@H](N)CCCCN)C(C)C)C(C)C)C(=O)NCC(N)=O,,"ATCC 25922, CAMHB","18 h, 37 °C",11 µM
Nc1nc2ccc(Oc3ccc4nc(N)sc4c3)cc2s1,"microbial growth, broth dilution",DC2,20 h,32 to 64 µg/mL
CC[C@H](C)[C@H](NC(=O)[C@H](NC(=O)[C@@H](CCC(N)=O)NC(=O)[C@@H](N)COC(=O)[C@@H](NC(=O)[C@@H](Cc1ccccc1)NC)[C@@H](C)CC)[C@@H](C)CC)C(=O)N[C@@H](CO)C(=O)N[C@H]1C(=O)N[C@@H](C)C(=O)N[C@@H](C2CCCCC2)C(=O)N[C@@H]([C@@H](C)CC)C(=O)O[C@H]1C,broth microdilution,"ATCC 10798, Mueller-Hinton broth","16 h, 37 °C",> 8 µg/mL
CCCCCCCCCCCCCCCCC(=O)N[C@@H](CCCCN)C(=O)N[C@@H](CCCCN)C(=O)N[C@@H](CCCNC(=N)N)C(=O)N[C@@H](CCCCN)C(=O)N[C@@H](CCCCN)C(N)=O,broth microdilution,"K12, water pH 7","18 h, 37 °C",8 µg/mL
Cc1cc(N)c2cc(NC(=O)c3ccc4cc(C5CC5)ccc4c3)ccc2n1,,ΔtolC efflux-deficient,,100 µM
CC(C)[C@@H]1NC(=O)[C@@H]2CCCN2C(=O)[C@@H](C)NC(=O)[C@H](CO)NC(=O)[C@H](C)NC(=O)[C@H](C(C)(C)C)NC(=O)[C@H](CCO)NC(=O)[C@H](Cc2c[nH]c3ccccc23)NC(=O)[C@H](CCO)NC(=O)[C@@H](CCN)NC(=O)[C@H](CCC(N)=O)NC(=O)[C@H](CCN)NC(=O)[C@H](Cc2ccc(O)cc2)NC(=O)[C@H]([C@@H](C)O)NC1=O,broth microdilution,"MCR2, colistin-resistant, mcr plasmid, CAMHB with polysorbate-80","16 h, 37 °C, added: 0.002% polysorbate-80",> 64 µg/mL
CC1(C)OC2OC(C(CCO)NC(=O)Nc3cccc(NC(=O)NC(CCO)C4OC5OC(C)(C)OC5C4OCc4ccccc4)c3)C(OCc3ccccc3)C2O1 (stereo not shown),"microbial growth, broth dilution",,20 h,76 µg/mL
CC[C@H](C)[C@H](NC(=O)[C@H](CCCN)NC(=O)[C@H](CC(N)=O)NC(=O)[C@H](CC(C)C)NC(=O)[C@H](Cc1ccccc1)NC(=O)[C@H](CCCN)NC(=O)[C@H](CCCCNC(=N)N)NC(=O)[C@H](CC(C)C)NC(=O)[C@H](CC(C)C)NC(=O)[C@H](CCCN)NC(=O)[C@H](CCCCNC(=N)N)NC(=O)[C@H](CC(C)C)NC(=O)CNC(C)=O)C(=O)N[C@@H](CCCN)C(=O)N[C@@H](CCCCNC(=N)N)C(N)=O,broth microdilution,ATCC 25922,,3.12 µM
CC(C)[C@H](NC(=O)[C@H](CCCCN)NC(=O)[C@H](CCCNC(=N)N)NC(=O)[C@@H](NC(=O)[C@H](C)NC(=O)[C@H](CC(N)=O)NC(=O)[C@H](CCCNC(=N)N)NC(=O)[C@@H](NC(=O)[C@H](CCCCN)NC(=O)[C@H](CCCCN)NC(=O)[C@@H](NC(=O)[C@@H](NC(=O)[C@H](CCCNC(=N)N)NC(=O)[C@H](CCCNC(=N)N)NC(=O)[C@H](Cc1c[nH]c2ccccc12)NC(=O)[C@H](Cc1c[nH]c2ccccc12)NC(=O)CN)[C@@H](C)O)C(C)C)C(C)C)C(C)C)C(=O)O,,ATCC 25922,"18 h, 37 °C",8 µg/mL
CC(C)C[C@@H]1NC(=O)[C@H](C)NC(=O)[C@H](NC(=O)[C@H](CO)NC(=O)[C@@H](CCCCN)NC(=O)[C@@H](CC(C)C)N(C)C(=O)[C@@H](N)Cc2ccccc2)[C@H](C)OC(=O)[C@H](CC(C)C)NC1=O,,ATCC 10798,TFA salt,> 32 µg/mL
CCCCCCCCCC(=O)N[C@@H](Cc1ccccc1)C(=O)N[C@@H](Cc1ccccc1)C(=O)N[C@@H](Cc1ccccc1)C(=O)N[C@@H](Cc1ccccc1)C(=O)N[C@@H](CCCCN)C(=O)N[C@@H](CCCCN)C(=O)N[C@@H](CCCCN)C(=O)N[C@@H](CCCCN)C(=O)N[C@@H](CCCCN)C(N)=O,broth microdilution,K12,"16-24 h, 37 °C, prepared at pH 7",> 32 µg/mL
CCCCCCCCCCCCCCCCN(C)[C@H](CO)C(=O)N[C@H](C)C(=O)NCC(=O)N(C)[C@@H]1C(=O)N[C@@H](C)C(=O)N[C@H](C(=O)O)Cc2ccc(O)c(c2)-c2cc1ccc2O,broth microdilution,MG1655 wild type,"24 h, 37 °C, inactive",inactive
CCCCCCCCCCCC[S+]([O-])CC1OC(OC2C(N)CC(N)C(OC3OC(CN)C(O)CC3N)C2O)C(O)C(N)C1O (mixture of isomers),,BL21(DE3) Eis-expressing,,> 150 µg/mL
C[C@@](O)(C(F)F)[C@H](NC(=O)c1ccc(C#CC#CC2CC2)cc1)C(=O)NO,,ATCC 25922,,0.02 µg/mL
CC[C@H](C)[C@H](NC(=O)[C@H](CO)NC(=O)[C@H](CO)NC(=O)[C@H](Cc1ccccc1)NC(=O)CN)C(=O)N[C@@H](Cc1ccccc1)C(=O)N[C@@H](CCCNC(=N)N)C(N)=O,,ATCC 8739,added: 8 mM ZnCl2,> 128 µM
CCc1ccc([C@@H]2C[C@H](C(F)(F)F)n3ncc(C(=O)NCc4ccc(OC)cc4)c3N2)cc1,broth microdilution,3,,> 64 µM
CCCO[C@H]1[C@H](O)[C@@H](N)[C@@H](O[C@H]2[C@H](O[C@@H]3O[C@H](CO)[C@@H](O[C@H]4O[C@@H](CN)[C@@H](O)[C@H](O)[C@H]4N)[C@H]3O)[C@@H](O)[C@H](N)C[C@@H]2N)O[C@@H]1CO,broth microdilution,clinical isolate AG 003,,32 µg/mL
Cc1ccc(SCC2OC(OC3C(N)CC(N)C(OC4OC(CN)C(O)CC4N)C3O)C(O)C(N)C2O)cc1 (stereo not shown),,BL21(DE3) pET22b,,37.5 µg/mL
Cc1cc(N)c2cc(NC(=O)c3ccc4c(-c5ccccc5O)cccc4c3)ccc2n1,,hyperporinated ΔtolC,,12.5 µM
CC[C@H](C)[C@H](NC(=O)[C@H](CCCNC(=N)N)NC(=O)[C@H](Cc1ccccc1)NC(=O)[C@H](CC(C)C)NC(=O)[C@H](CCCCN)NC(=O)[C@H](CO)NC(=O)[C@@H](NC(=O)[C@H](CC(C)C)NC(=O)[C@H](CCCCN)NC(=O)[C@H](C)NC(=O)[C@H](CC(N)=O)NC(=O)[C@H](CCCNC(=N)N)NC(=O)[C@H](Cc1ccc(O)cc1)NC(=O)[C@H](C)NC(=O)[C@@H](NC(=O)[C@H](CCCCN)NC(=O)[C@H](CC(N)=O)NC(=O)[C@H](CCCCN)NC(=O)[C@H](CC(C)C)NC(=O)[C@H](CO)NC(=O)[C@H](CC(C)C)NC(=O)[C@H](C)NC(=O)[C@H](C)NC(=O)[C@H](CO)NC(=O)[C@@H](NC(=O)[C@@H](NC(=O)[C@H](Cc1c[nH]c2ccccc12)NC(=O)[C@@H](NC(=O)[C@H](CO)NC(=O)[C@@H](NC(=O)[C@@H](N)CC(C)C)C(C)C)C(C)C)[C@@H](C)CC)[C@@H](C)CC)C(C)C)C(C)C)C(=O)N[C@@H](C)C(=O)N[C@@H](CC(C)C)C(=O)O,broth microdilution,ATCC 25922,"24 h, 37 °C",2 µg/mL
CC[C@H](C)[C@H](NC(=O)[C@H](CCCNC(=N)N)NC(=O)[C@@H](N)CCCNC(=N)N)C(=O)N[C@@H](CCCNC(=N)N)C(=O)N[C@@H](Cc1ccccc1)C(=O)N[C@@H](CCCNC(=N)N)C(=O)N1CCC[C@H]1C(=O)N1CCC[C@H]1C(=O)N[C@@H](Cc1ccc(O)cc1)C(=O)N[C@@H](CC(C)C)C(=O)N1CCC[C@H]1C(=O)N[C@@H](CCCNC(=N)N)C(=O)N1CCC[C@H]1C(=O)NCC(=O)N[C@@H](CCCNC(=N)N)C(=O)N[C@@H](CCCNC(=N)N)C(=O)N1CCC[C@H]1C(=O)N[C@@H](CCCNC(=N)N)C(=O)N[C@@H](Cc1ccccc1)C(=O)N1CCC[C@H]1C(=O)N1CCC[C@H]1C(=O)N1CCC[C@H]1C(=O)N[C@@H](Cc1ccccc1)C(=O)N1CCC[C@H]1C(=O)N[C@H](C(=O)N1CCC[C@H]1C(=O)N[C@@H](CCCNC(=N)N)C(=O)N[C@H](C(=O)N1CCC[C@H]1C(=O)N[C@@H](CCCNC(=N)N)C(=O)N[C@H](C(=O)N1CCC[C@H]1C(=O)O)[C@@H](C)CC)[C@@H](C)CC)[C@@H](C)CC,broth microdilution,"BW25113 wild type, Mueller-Hinton broth","overnight, 37 °C",1.2 µM
CC(C)C[C@H](NC(=O)[C@H](CC(C)C)NC(=O)[C@H](CCCCN)NC(=O)CNC(=O)[C@H](CC(C)C)NC(=O)[C@H](CC(C)C)NC(=O)[C@H](CO)NC(=O)[C@H](CC(C)C)NC(=O)[C@H](CC(C)C)NC(=O)[C@H](CO)NC(=O)[C@H](CC(C)C)NC(=O)[C@H](CC(C)C)NC(=O)CN)C(N)=O,broth microdilution,K12,,> 120 µM
